Measurements gathered from unrelated publications.
± gives the spread as reported.

With `C[C@H]1[C@H](C)CC[C@]2(C)CC[C@]3(C)C(=CC(=O)[C@@H]4[C@@]5(C)CC[C@@H](O)[C@](C)(C(=O)NCCNC(=O)C6CC6)[C@@H]5CC[C@]43C)[C@H]12` the IC50 was 24.9 µM (HBE; cell growth or viability, MTT; 48 h).
With `CC1(C)CCC(CN2CCN(c3ccc(C(=O)NS(=O)(=O)c4ccc(NCC5COCCO5)c([N+](=O)[O-])c4)c(N4CCCOc5nc6[nH]ccc6cc54)c3)CC2)=C(c2ccc(Cl)cc2)C1` (stereo not drawn) the IC50 was 0.812 µM (PF-382; cell growth or viability, ATP luminescence; 24 h).
`N=C(N/N=C/c1cccs1)N/N=C/c1cccs1` gave an IC50 of 10.8 µM (KP-4; cell growth or viability, crystal violet; 72 h).
`Cc1ccc(/C=C2\CCCC3C2=NN(C(=O)c2ccncc2)C3c2ccc(C)cc2)cc1` (stereo not drawn) has an IC50 of 0.25 µM (human erythrocytes; membrane protection, HRBC membrane stabilization).
For `Cc1cnc2c(ccc3c(C)c(C)cnc32)c1C.O=C([O-])Cc1ccccc1Nc1c(Cl)cccc1Cl.O=C([O-])Cc1ccccc1Nc1c(Cl)cccc1Cl.[Cu+2]`, the IC50 was 0.133 ± 0.008 µM (HMLER breast cancer cells; cytotoxicity, MTT; 72 h).
For `N#C/C(=C\c1cn(-c2ccccc2)nc1-c1ccc(Br)cc1)c1nc2ccccc2[nH]1`, the IC50 was > 100 µM (SW1990; cell growth or viability, ATP luminescence; 72 h).
The IC50 of `CC1=CC(C(F)(F)F)=[O+][Pt-2]([NH3+])([NH3+])[O]1.CC1=CC(C(F)(F)F)=[O+][Pt-2]([NH3+])([NH3+])[O]1.O=S(=O)([O-])[O-]` (stereo not drawn) is reported as 4.1 µM (U2OS; cell growth or viability, MTT).
`CC(C)c1cccc(C(C)C)c1-n1c2c([n+](-c3c(C(C)C)cccc3C(C)C)[c]1[Au-][Cl])-c1cccc3cccc-2c13` has an IC50 of 16 ± 1 µM (2008; cell growth, MTT; 72 h).
`CCCCCCCCC=CCCCCCCCC(=O)OCC1OC(n2ccc(N)nc2=O)C(F)(F)C1O` (stereo not drawn) has an IC50 of 0.028 µM (MOLT-4; cell growth or viability).
For `CC(=O)O[C@@H]1CC[C@@]2(C)[C@@H](CC[C@]3(C)[C@@H]2C(=O)C=C2[C@@H]4[C@@H](C)[C@H](C)CC[C@]4(C)CC[C@]23C)[C@@]1(C)C(=O)NCCNC(=O)C1CCCCC1`, the IC50 was 4.61 µM (HBE; cell growth or viability, MTT; 48 h).
`C[O][Pt-2]([NH3+])([NH3+])([Cl])([Cl])[O]C(=O)CCC(=O)O` has an IC50 of 129 µM (SW480; cell growth or viability, MTT; 96 h).
With `COC(=O)[C@H]1[C@H]2C[C@H]3O[C@@]4(CCN3C[C@H]2C[C@@H](OC(=O)c2cc(OC)c(OC)c(OC)c2)[C@@H]1OC)C(=O)Nc1cc(OC)c(-c2ccc(F)cc2)cc14` the IC50 was 3.52 µM (RS4-11; cell growth or viability, trypan blue; 72 h).
`C=C[CH2][Pd-]([Cl])[Cl].CC(C)c1cccc(C(C)C)c1-n1c[n+](-c2c(C(C)C)cccc2C(C)C)c2c1-c1cccc3cccc-2c13` has an IC50 of 27 ± 7 µM (2008 spheroids; cell viability, APH; 3D spheroids; 72 h).
With `C=C1C(=O)OC2CC3=C[C@@H](C/C(C)=C/C(OC(=O)Cc4cccc5ccccc45)[C@H]12)OC3=O` (stereo partly drawn) the IC50 was 0.34 µM (NES-SA; cell viability, MTT; 24 h).
`N=C(N)NCCC[C@H](N)C(=O)N[C@H](CC(=O)N[C@@H](Cc1ccc(O)cc1)C(=O)O)c1cccc2ccccc12` has an IC50 of > 50 µM (MCF-7 (no HER2 overexpression)).
`CCCC(=O)Oc1c(C)c(OC)c2c(/C=C/c3ccccc3)c(CC)c(=O)oc2c1C` gave an IC50 of > 50 µM (FaDu; cell growth or viability, SRB; 72 h).
The IC50 of `Cc1c(C)n(-c2c(C(C)C)cccc2C(C)C)c(=[Se])n1-c1c(C(C)C)cccc1C(C)C.[Cl][Ag]` is reported as 3.6 µM (LoVo; cell growth or viability, MTT; 72 h).
With `CCn1cc(/C=C/c2sc3ccccc3[n+]2CC)c2ccccc21` the IC50 was > 20 µM (HFF; cell growth or viability, MTT; 24 h).
The IC50 of `CC1=C2[O][Ru-]([Cl])[O+]=C2C=CN1CCCN1C=CC2=[O+][Ru-]([Cl])[O]C2=C1C.Cc1ccc(C(C)C)cc1.Cc1ccc(C(C)C)cc1` is reported as 21.2 µM (SISO; cell growth or viability, crystal violet; 96 h).
`COC(=O)[C@H]1[C@H]2C[C@H]3O[C@@]4(CCN3C[C@H]2C[C@@H](OC(=O)c2cc(OC)c(OC)c(OC)c2)[C@@H]1OC)C(=O)Nc1cc(OC)c(-c2ccc(C(C)(C)C)cc2)cc14` gave an IC50 of 21.3 µM (RS4-11; cell growth or viability, trypan blue; 72 h).
With `Cc1sc2c(c1C)C(c1ccc(Cl)cc1)=N[C@@H](CC(=O)N1CCN(CC3CCN(C(=O)CN4CCC(Nc5cccc6c5cc(C#CCNc5ccc(P(C)(C)=O)cc5)n6CC(F)(F)F)CC4)CC3)CC1)c1nnc(C)n1-2` the IC50 was 3.5 µM (A549 p53 wild type; cell growth).
`COc1cc(/C=C/c2cc(C)n[nH]2)ccc1O` gave an IC50 of 75 µM (mouse Splenic lymphocyte; cell growth or viability, MTT; 48 h).
For `N=C(N/N=C/c1ccc(F)cc1)N/N=C/c1ccc(F)cc1`, the IC50 was 9.4 µM (KP-4; cell growth or viability, crystal violet; 72 h).
`CCCC(CCC)C(=O)[O][Pt]([NH2])([NH2])([Cl])([Cl])[O]C(=O)C(C)c1ccc(CC(C)C)cc1` (stereo not drawn) gave an IC50 of 0.68 µM (BCPAP; cell growth or viability, MTT; 72 h).
`CC(=O)O[C@@H]1CC[C@@]2(C)[C@@H](CC[C@]3(C)[C@@H]2C(=O)C=C2[C@@H]4[C@@H](C)[C@H](C)CC[C@]4(C)CC[C@]23C)[C@@]1(C)C(=O)O` gave an IC50 of 26.2 µM (HBE; cell growth or viability, MTT; 48 h).
For `C=CCc1ccc(OC(C)=O)c(OC)c1`, the IC50 was > 50 µM (HSC-4; MTT; 24 h).
For `Cc1ccc(CC(=O)N(CCCn2ccnc2)c2nc3ccccc3s2)c(C)c1`, the IC50 was 28.3 µM (SW620 tumour organoids; cell viability; 72 h, 2% Matrigel, 0.4% DMSO).
For `Cc1cc(C=O)cc(C)c1Oc1cc(Nc2ccc(C#N)cn2)nc2cnccc12`, the IC50 was > 126 µM (HuCC-A1; 48 h).
`CC1CC(=O)N(CCCCN)N=C1c1ccc(NC(=O)N2Cc3ccncc3C2)cc1` (stereo not drawn) has an IC50 of 0.00018 µM (MDA-MB-453; cell growth or viability, ATP luminescence).
`Cc1cc(N)c2cc(NC(=O)CCCC(=O)Nc3ccc4nc(C)cc(N)c4c3)ccc2n1` gave an IC50 of 61.5 ± 0.7 µM (CHO wild type; FGF2 binding to heparan sulfate, inhibitor, flow cytometry; on ice, with: biotinylated FGF2 2.5 nM).
For `CCCC(CCC)C(=O)[O][Pt]([NH2])([NH2])([Cl])([Cl])[O]C(=O)C(Cl)Cl`, the IC50 was 0.757 µM (LoVo; cell growth or viability, MTT; 72 h).
The IC50 of `CCOP(=O)(OCC)C(Cc1cccc(F)c1F)Nc1cccc(C)c1` (stereo not drawn) is reported as 71.3 µM (T98G; cell growth or viability, MTT; 48 h).
The IC50 of `COc1ccc2cc3[n+](cc2c1OCc1cn(Cc2ccc(S(C)(=O)=O)cc2)nn1)CCc1cc2c(cc1-3)OCO2` is reported as 101 µM (SW1990; cell growth or viability, MTT).
For `COCC12CCC(OC)C34C5CC6(O)C(O)C5C(O)(C(O)C6OC)C(CC13)C4N(C)C2` (stereo not drawn), the IC50 was 27.3 µM (HBE; cell growth or viability, MTT).
For `COc1ccc2cc3[n+](cc2c1OCc1cn(Cc2ccc(Cl)cc2)nn1)CCc1cc2c(cc1-3)OCO2`, the IC50 was 37.9 µM (SW1990; cell growth or viability, MTT).
`Cc1cc(/C=C/C#N)cc(C)c1Oc1cc(Nc2ccc(C#N)cn2)nc2ccncc12` gave an IC50 of > 120 µM (HuCC-A1; 48 h).
For `CC(=O)OC[C@]1(C)CCC[C@]2(CO)[C@@H]1CC[C@@]13C[C@@H](C[C@H](O)[C@H]12)[C@H](C)C3=O`, the IC50 was > 20 µM (HBE; cell growth or viability, MTT).
For `CC(=O)OC1CCC(OC(C)=O)O1` (racemic), the IC50 was > 10 µM (human T lymphocytes; interleukin-2 release, inhibitor, ELISA; pre-treated 2 h, with: concanavalin A 50 µg/mL 48 h).
`CCOP(=O)(OCC)C(Cc1ccccc1F)Nc1ccccc1` (stereo not drawn) gave an IC50 of 106 µM (T98G; cell growth or viability, MTT; 48 h).
The IC50 of `COc1c(O)c(Br)c2oc3c(Br)c(O)c(CC=C(C)C)c(O)c3c(=O)c2c1CC=C(C)C` is reported as 36.6 µM (SW480; cell growth or viability; 48 h).
`Cc1c(C)c(-c2ccc(-c3ccccc3)cc2)[c-](C)c1C.Cc1c(C)c(-c2ccc(-c3ccccc3)cc2)[c-](C)c1C.[Cl-].[Cl-].[Cl-].[Cl-].[Ir+3].[Ir+3]` (stereo not drawn) has an IC50 of > 50 µM (A549 human cancer cells; cell growth, MTT; 24 h).
The IC50 of `CC(C)C1OC(=O)C(NC(=O)c2cccc(O)c2)C(C)OC(=O)C(C(C)C)OC(=O)C(C)(C)C(=O)C(Cc2ccccc2)OC1=O` (stereo not drawn) is reported as > 20 µM (HCT-8/T taxol-resistant; cell viability, CCK-8; 72 h).
The IC50 of `N[C@@H](CCC(=O)N[C@@H](CS[Se]Cc1ccc(-c2cc(C(F)(F)F)nn2-c2ccc(S(N)(=O)=O)cc2)cc1)C(=O)NCC(=O)O)C(=O)O` is reported as 5.8 ± 0.9 µM (WM-115 melanoma cells; cell viability, MTS; 48 h, vertical stage).
For `C1=[N+]2CCCC[N+]3=Cc4ccc5[n]4[Au-]23[n]2c1ccc2-c1nc2ccccc2nc1-5.F[P-](F)(F)(F)(F)F`, the IC50 was 17 µM (breast cancer cell lines; NCI60 panel mean).
The IC50 of `CC1OC(OCC2OC(Oc3cc(O)c4c(=O)cc(-c5ccc(O)c(O)c5)oc4c3)C(O)C(O)C2O)C(O)C(O)C1O` (stereo not drawn) is reported as > 100 µM (HCT-116 p53-/- colon cancer; cytotoxicity, resazurin reduction; 72 h).
`CC(C)Cc1ccc(C(C)C(=O)[O][Pt]([NH2])([NH2])([Cl])([Cl])[O]C(=O)CCCc2ccccc2)cc1` (stereo not drawn) has an IC50 of 0.08 µM (BCPAP; cell growth or viability, MTT; 72 h).
With `CCCCCCCCn1c(-c2cccnc2)nc(-c2ccc(C)cc2)c1-c1ccc(C)cc1` the IC50 was 67.2 µM (L929; cell growth or viability, SRB).
With `Cc1cc(C)cc(/C=N/NC(=N)N/N=C/c2cc(C)cc(C)c2)c1` the IC50 was 29.1 ± 3.5 µM (KP-4; cell growth, crystal violet; 72 h).
`COc1ccc(C[C@H]2COC(=O)[C@@H]2Cc2ccc(OCCCCCCCCCC(=O)NO)c(OC)c2)cc1OC` gave an IC50 of > 5 µM (Kasumi 1; cell growth or viability, CCK-8; 48 h).
`O=C1/C(=C/c2ccccc2F)CNC/C1=C\c1ccccc1F` gave an IC50 of 2.3 µM (BGC-823; cell growth or viability, MTT; 72 h).
For `C=C1C(=O)[C@@]23CC[C@@H]4[C@](C)(COC(C)=O)CCC[C@@]4(C)[C@@H]2[C@@H](O)C[C@@H]1C3` (single isomer, unassigned), the IC50 was 8.1 µM (HBE; cell growth or viability, MTT).
`COc1ccc2cc3[n+](cc2c1OCc1cn(Cc2ccc(OC(F)(F)F)cc2)nn1)CCc1cc2c(cc1-3)OCO2` gave an IC50 of 29 µM (SW1990; cell growth or viability, MTT).
With `CC(=O)O[C@@H]1CC[C@@]2(C)[C@@H](CC[C@]3(C)[C@@H]2C(=O)C=C2[C@@H]4[C@@H](C)[C@H](C)CC[C@]4(C)CC[C@]23C)[C@@]1(C)C(=O)NCCNC(=O)CCCCCBr` the IC50 was 13.1 µM (HBE; cell growth or viability, MTT; 48 h).
For `Nc1ccc(/C=C/C(=O)N2CCc3c(oc4c(-c5ccc(F)cc5)cc(-c5ccc(NC(=O)[C@@H]6CCCO6)nn5)cc34)C2)cn1`, the IC50 was ~3 µM (U2OS; cell growth or viability, CCK-8; 72 h).
The IC50 of `Cc1cn([C@@H]2O[C@H](CO)[C@@H](O)[C@H](F)[C@H]2O)c(=O)[nH]c1=O` is reported as > 200 µM (Molt4/C8; cell growth or viability).
With `CC(=O)O[C@@H]1CC[C@@]2(C)[C@@H](CC[C@]3(C)[C@@H]2C(=O)C=C2[C@@H]4[C@@H](C)[C@H](C)CC[C@]4(C)CC[C@]23C)[C@@]1(C)C(=O)NCCNC(=O)CCCCBr` the IC50 was 4.88 µM (HBE; cell growth or viability, MTT; 48 h).
`CC(C)c1cccc(C(C)C)c1-n1ccn(-c2c(C(C)C)cccc2C(C)C)c1=[Se].[Cl][Au]` has an IC50 of 2 µM (LoVo; cell growth or viability, MTT; 72 h).
